Experimental data pooled from the literature.
Protocols differ between the studies behind these lines.

Structure (SMILES)	system	setting	how to read	plasma concentration
C[C@H](CCC(=O)NCC(=O)O)[C@H]1CC[C@H]2[C@@H]3CC[C@@H]4C[C@H](O)CC[C@]4(C)[C@H]3C[C@H](O)[C@]12C	women, T/C genotype, plasma	dose not given, geometric mean		115 ng/mL
COc1c(O)cc(C(=O)O)cc1OS(=O)(=O)O	human plasma	mean		723 nM
CCn1c(C(=O)N(C2CC2)C2CC2)cc2c3c(ncn3C)c(Nc3cc(C)n(C)n3)nc21	cancer patients	oral, 200 mg single dose, day 1, 4.0 h		1440 ng/mL
CC(C)C[C@H](NC(=O)[C@@H](Cc1c[nH]c2ccccc12)NC(=O)[C@H](Cc1ccc(O)cc1)NC(=O)[C@H](CO)NC(=O)[C@H](Cc1c[nH]c2ccccc12)NC(=O)[C@H](Cc1c[nH]cn1)NC(=O)[C@@H]1CCC(=O)N1)C(=O)N[C@@H](CCCNC(=N)N)C(=O)N1CCC[C@H]1C(=O)NCC(N)=O	Chinese girls, precocious puberty, plasma	intramuscular, 22.5 mg, 4320 h, pre-dose second injection, mean		0.626 ng/mL
COC(=O)C(c1ccccc1Cl)N1CCC(SCC(=O)c2cccc(OC)c2)C(=CC(=O)O)C1 (stereo not drawn)	cat, plasma	dose not given, day 10, together with: clopidogrel plus omeprazole	baseline: clopidogrel alone	decreased
O=C(O)CNC(=O)c1ccccc1O	human plasma	median		284 nM
COc1ccccc1OCC(O)CN1CCN(CC(=O)Nc2c(C)cccc2C)CC1 (stereo not drawn)	human, plasma	oral, 12 mg/kg/day every 12 h, 2 h post-dose		573 ng/mL
O=C(O)[C@H]1O[C@@H](Oc2ccc3c(c2)OC[C@H](c2ccc(O)cc2)C3)[C@H](O)[C@@H](O)[C@@H]1O	human plasma	median		716 nM
CS(=O)(=O)n1cc2c(n1)CN([C@H]1CO[C@H](c3cc(F)ccc3F)[C@@H](N)C1)C2	healthy Japanese men, plasma	oral, 10 mg, 168 h, fed, single dose		9.16 nM
O=C1CCc2ccc(OCCCCN3CCN(c4cccc(Cl)c4Cl)CC3)cc2N1	patients, plasma, steady state	oral or long-acting depot injection, dose not given, CYP2D6 pPM, median		167 ng/mL
O=C(O)C(O)Cc1ccc(O)cc1 (stereo not drawn)	human plasma	mean		10200 nM
C[C@H](CCC(=O)NCC(=O)O)[C@H]1CC[C@H]2[C@@H]3[C@H](O)C[C@@H]4C[C@H](O)CC[C@]4(C)[C@H]3CC[C@]12C	men, C/C genotype, plasma	dose not given, geometric mean		813 ng/mL

A few entries again:
Structure (SMILES)	system	setting	how to read	plasma concentration
O=C(O)C(O)Cc1ccc(O)cc1 (stereo not drawn)	human plasma	mean		10200 nM
